Results from different studies.
Lines come from different studies, so protocols differ.

Structure (SMILES) = O=C(O)CCC(=O)O.[2H]C([2H])([2H])Oc1cc(C)c2[nH]ccc2c1CN1CC[C@@H](C2CC2)C[C@H]1c1ccc(C(=O)O)cc1; test = multiple ascending dose; system = healthy Chinese subjects; setting = 300 mg once daily; quantity = subjects with reduced potassium TEAE; result = 0%
Structure (SMILES) = NS(=O)(=O)c1cc(C(=O)O)c(NCc2ccco2)cc1Cl; test = measured: vascular disorders; system = healthy men; setting = oral, 8 days, treatment-emergent, crossover trial; quantity = subjects with adverse event; result = 0%
Structure (SMILES) = CC#CC(=O)N[C@H]1CCCN(c2c(F)cc(C(N)=O)c3[nH]c(C)c(C)c23)C1; system = healthy volunteers; setting = oral, 3 mg once daily, 14 days; quantity = subjects with adverse events; result = 50%
Structure (SMILES) = Cc1c(Cl)c(C)[n+]([O-])c(Cl)c1-c1noc(-c2cc(O)c(O)c([N+](=O)[O-])c2)n1; system = healthy Caucasian subjects; setting = oral, 50 mg, 10 days; quantity = subjects with any serious TEAE; result = 0%
Structure (SMILES) = CC(C)n1c(Nc2cccnc2)nc2cnc(Nc3ccc(N4CCN(C)CC4)cc3)nc21; test = measured: gum pain; system = healthy male subjects; setting = oral, 100 mg, study, with: itraconazole; quantity = subjects with adverse event; result = 7.1%
Structure (SMILES) = Cc1nc(-c2ccc(OCC(C)C)c(C#N)c2)sc1C(=O)O; system = healthy Chinese subjects, fasted; setting = oral, 40 mg single dose; quantity = subjects with adverse events; result = 12.8%
Structure (SMILES) = CC[C@H](C)[C@H](NC(=O)[C@H](Cc1ccccc1)NC(=O)[C@H](CCC(=O)O)NC(=O)[C@H](CCCCNC(=O)COCCOCCNC(=O)COCCOCCNC(=O)CC[C@H](NC(=O)CCCCCCCCCCCCCCCCC(=O)O)C(=O)O)NC(=O)[C@H](C)NC(=O)[C@H](C)NC(=O)[C@H](CCC(N)=O)NC(=O)CNC(=O)[C@H](CCC(=O)O)NC(=O)[C@H](CC(C)C)NC(=O)[C@H](Cc1ccc(O)cc1)NC(=O)[C@H](CO)NC(=O)[C@H](CO)NC(=O)[C@@H](NC(=O)[C@H](CC(=O)O)NC(=O)[C@H](CO)NC(=O)[C@@H](NC(=O)[C@H](Cc1ccccc1)NC(=O)[C@@H](NC(=O)CNC(=O)[C@H](CCC(=O)O)NC(=O)C(C)(C)NC(=O)[C@@H](N)Cc1cnc[nH]1)[C@@H](C)O)[C@@H](C)O)C(C)C)C(=O)N[C@@H](C)C(=O)N[C@@H](Cc1c[nH]c2ccccc12)C(=O)N[C@@H](CC(C)C)C(=O)N[C@H](C(=O)N[C@@H](CCCNC(=N)N)C(=O)NCC(=O)N[C@@H](CCCNC(=N)N)C(=O)NCC(=O)O)C(C)C; system = Caucasian subjects; setting = 1.0 mg, metabolism and nutrition disorders; quantity = subjects with adverse events; result = 37.5%
Structure (SMILES) = NCCONC(=O)[C@@H]1CC[C@@H]2CN1C(=O)N2OS(=O)(=O)O; system = healthy Chinese male subjects; setting = intravenous, 1 g; quantity = subjects with TEAEs; result = 62.5%
Structure (SMILES) = C=CC(=O)NC1CCN(c2ncc3ncnc(Nc4ccc(Oc5ccc6c(c5)ncn6C)c(C)c4)c3n2)CC1; system = healthy male volunteers; setting = oral, 60 mg, 2 weeks; quantity = subjects discontinuing due to adverse events; result = 0%
Structure (SMILES) = Cc1nc2ccc(F)cc2n1-c1nc(N)c(F)c(Nc2ccc(C(F)(F)F)cc2)n1; system = leiomyosarcoma patients; setting = dose not given, with: dacarbazine; quantity = subjects with related TEAE; result = 96.6%
Structure (SMILES) = O=C(Nc1cnccc1Cl)N1CCN(Cc2ccc3c(c2)OC(F)(F)O3)CC1; test = multiple ascending dose; system = young women; setting = 100 mg, at least 1 treatment-emergent event; quantity = subjects with adverse events; result = 100%
Structure (SMILES) = C[C@H]1O[C@@H](O[C@H]2[C@@H](O)C[C@H](O[C@H]3[C@@H](O)C[C@H](O[C@H]4CC[C@@]5(C)[C@H](CC[C@@H]6[C@@H]5C[C@@H](O)[C@]5(C)[C@@H](C7=CC(=O)OC7)CC[C@]65O)C4)O[C@@H]3C)O[C@@H]2C)C[C@H](O)[C@@H]1O; test = measured: phlebitis; system = healthy men; setting = oral, dose not given, 8 days, treatment-emergent, crossover trial; quantity = subjects with adverse event; result = 0%
Structure (SMILES) = C[C@H]1CNCCCN1S(=O)(=O)c1cccc2cncc(F)c12; system = healthy adult men; setting = ocular, 1 drop per eye twice daily, 8 days, adverse drug reaction; quantity = subjects with conjunctival hyperaemia; result = 100%
Structure (SMILES) = Cn1cc(Nc2nc(N)nc(-c3cccc(-n4ccc5cc(C6CC6)cc(F)c5c4=O)c3CO)n2)cn1; system = healthy subjects; setting = oral, 300 mg tablet, fed high-fat breakfast; quantity = subjects with vomiting; result = 1%
Structure (SMILES) = COc1c(N2C[C@@H]3CCCN[C@@H]3C2)c(F)cc2c(=O)c(C(=O)O)cn(C3CC3)c12; system = healthy volunteers; setting = 400 mg; quantity = subjects with decreased appetite; result = 0%

Some of these lines once more:
Structure (SMILES) = Cc1nc2ccc(F)cc2n1-c1nc(N)c(F)c(Nc2ccc(C(F)(F)F)cc2)n1; system = leiomyosarcoma patients; setting = dose not given, with: dacarbazine; quantity = subjects with related TEAE; result = 96.6%
Structure (SMILES) = C[C@H]1CNCCCN1S(=O)(=O)c1cccc2cncc(F)c12; system = healthy adult men; setting = ocular, 1 drop per eye twice daily, 8 days, adverse drug reaction; quantity = subjects with conjunctival hyperaemia; result = 100%
